Experimental data collected from several papers.
Each line is one published result; not all experiments were run side by side.
B1: POMP (Homo sapiens, UniProt Q9Y244); chain MNARGLGSELKDSIPVTELSASGPFESHDLLRKGFSCVKNELLPSHPLELSEKNFQLNQDKMNFSTLRNIQGLFAPLKLQMEFKAVQQVQRLPFLSSSNLSLDVLRGNDETIGFEDILNDPSQSEVMGEPHLMVEYKLGLL
B2: AIR2 1-223 (Saccharomyces cerevisiae, UniProt Q12476); sequence looked up; chain MEKNTAPFVVDTAPTTPPDKLVAPSIEEVNSNPNELRALRGQGRYFGVSDDDKDAIKEAAPKCNNCSQRGHLKKDCPHIICSYCGATDDHYSRHCPKAIQCSKCDEVGHYRSQCPHKWKKVQCTLCKSKKHSKERCPSIWRAYILVDDNEKAKPKVLPFHTIYCYNCGGKGHFGDDCKEKRSSRVPNEDGSAFTGSNLSVELKQEYYRHMNRNSDENEDYQFS
B3: GPIHBP1 21-151 (Homo sapiens, UniProt Q8IV16); sequence looked up; chain QTQQEEEEEDEDHGPDDYDEEDEDEVEEEETNRLPGGRSRVLLRCYTCKSLPRDERCNLTQNCSHGQTCTTLIAHGNTESGLLTTHSTWCTDSCQPITKTVEGTQVTMTCCQSSLCNVPPWQSSRVQDPTG
B4: PTK2 1-101 (Homo sapiens, UniProt Q05397); sequence looked up; chain MAAAYLDPNLNHTPNSSTKTHLGTGMERSPGAMERVLKVFHYFESNSEPTTWASIIRHGDATDVRGIIQKIVDSHKVKHVACYGFRLSHLRSEEVHWLHVD
B5: PUM1 589-1186 (Homo sapiens, UniProt Q14671); chain ISSSAAQAAVAAAAASANGAAGGLAGTTNGPFRPLGTQQPQPQPQQQPNNNLASSSFYGNNSLNSNSQSSSLFSQGSAQPANTSLGFGSSSSLGATLGSALGGFGTAVANSNTGSGSRRDSLTGSSDLYKRTSSSLTPIGHSFYNGLSFSSSPGPVGMPLPSQGPGHSQTPPPSLSSHGSSSSLNLGGLTNGSGRYISAAPGAEAKYRSASSASSLFSPSSTLFSSSRLRYGMSDVMPSGRSRLLEDFRNNRYPNLQLREIAGHIMEFSQDQHGSRFIQLKLERATPAERQLVFNEILQAAYQLMVDVFGNYVIQKFFEFGSLEQKLALAERIRGHVLSLALQMYGCRVIQKALEFIPSDQQNEMVRELDGHVLKCVKDQNGNHVVQKCIECVQPQSLQFIIDAFKGQVFALSTHPYGCRVIQRILEHCLPDQTLPILEELHQHTEQLVQDQYGNYVIQHVLEHGRPEDKSKIVAEIRGNVLVLSQHKFASNVVEKCVTHASRTERAVLIDEVCTMNDGPHSALYTMMKDQYANYVVQKMIDVAEPGQRKIVMHKIRPHIATLRKYTYGKHILAKLEKYYMKNGVDLGPICGPPNGII
B6: qcr10 (Schizosaccharomyces pombe, UniProt Q9P7E0); sequence looked up; chain MISFFPNKPMYHVQPHISFITPERTMKTIPAFSRWAFAAVAGVFVFAMQVPKVKTTILQPIAFIGDHFKDKTPEEDKWL
B7: VPS72 (Saccharomyces cerevisiae, UniProt Q03388); sequence looked up; chain MSDEGADKSLDTNTEFIIQTRSRRSNAGNKLQKLLEQELRDIESTKRQISSYKNGNDDEEDEIGLLFQEDEDDEDFEMMAKDDDDEGEEKEDETQSIRKEPSQASSEQAADDLMFSSSESEDSSNENDEDAEEKEIRRQELLSRKKRNKRLQKGPVVIKKQKPKPKSGEAIPRSHHTHEQLNAETLLLNTRRTSKRSSVMENTMKVYEKLSKAEKKRKIIQERIRKHKEQESQHMLTQEERLRIAKETEKLNILSLDKFKEQEVWKKENRLALQKRQKQKFQPNETILQFLSTAWLMTPAMELEDRKYWQEQLNKRDKKKKKYPRKPKKNLNLGKQDASDDKKRESEESIKNDGDVNSLGENSSSVHNQKRIEETSTNDTVEGESSPDAAVSRVNSDELKPTALPDVTLDAIANKQSTVDEAPNSQPQKNIITNEQKITNVGEPIQNLHNEEIKDEMVSALESRENTFENSSPAAQVVSQRDNSATPTPSNSTGTEDTILISPDTDIKGEPEPCLKTEGIENLSHNVPQETKSNTDVSFLKQVTFTDHPQVAIIDTEESPSKKDTANVDESSAENSLSTQTYEGPEQLTSRNFVTLYDFPNAPPNLKDFNTNLFGDRWSYTNGLSATQRPQDMKTVFHSILPSPPQSSVPSPTVDISLDLSALANFPSFGEYDKKIVHQINTEINKDLEIKIKTQPPTGVFLANGIRKKCLITNKECQYFDPRTGVPYSDVEAYKIIQRIQDPISKEEGRSDIKRDETTNEDSDDQVRFKWFGFKNGGIYLDLSQRPAKGVPEGF
B8: rasC Q62L (Dictyostelium discoideum, UniProt P32253); sequence looked up; chain MSKLLKLVIVGDGGVGKSALTIQLTQNQFIAEYDPTIENSYRKQVNIDEEVYMLDILDTAGLEEYSAMRDQYIRSGRGFLIVYSIISRASFEAVTTFREQILRVKDLSTYPIVIIGNKADLPDKDRKVPPMEGKELAKSFGAPFLETSAKSRVNVEEAFFTLVREIKRWNQNPQNEEMLPPKKRGCIIL
B9: EFR3A 721-791 I763A (Homo sapiens, UniProt Q14156); chain SNTEEITFEALKKAIDTSGMEEQEKEKRRLVIEKFQKAPFEEAAAQCESKANLLHDRLAQILELTIRPPPS
B10: CCDC32 66-130 Y77I (Mus musculus, UniProt Q8BS39); chain KPWAPLHDSEVILASLEKKLRRIKGLNEEVTSKDMLRTLAQAKKECWDRFLQEKLASEFFVDGLD
B11: NUP62 (Homo sapiens, UniProt P37198); sequence looked up; chain MSGFNFGGTGAPTGGFTFGTAKTATTTPATGFSFSTSGTGGFNFGAPFQPATSTPSTGLFSLATQTPATQTTGFTFGTATLASGGTGFSLGIGASKLNLSNTAATPAMANPSGFGLGSSNLTNAISSTVTSSQGTAPTGFVFGPSTTSVAPATTSGGFSFTGGSTAQPSGFNIGSAGNSAQPTAPATLPFTPATPAATTAGATQPAAPTPTATITSTGPSLFASIATAPTSSATTGLSLCTPVTTAGAPTAGTQGFSLKAPGAASGTSTTTSTAATATATTTSSSSTTGFALNLKPLAPAGIPSNTAAAVTAPPGPGAAAGAAASSAMTYAQLESLINKWSLELEDQERHFLQQATQVNAWDRTLIENGEKITSLHREVEKVKLDQKRLDQELDFILSQQKELEDLLSPLEELVKEQSGTIYLQHADEEREKTYKLAENIDAQLKRMAQDLKDIIEHLNTSGAPADTSDPLQQICKILNAHMDSLQWIDQNSALLQRKVEEVTKVCEGRRKEQERSFRITFD
B12: HY5 (Arabidopsis thaliana, UniProt O24646); sequence looked up; chain MQEQATSSLAASSLPSSSERSSSSAPHLEIKEGIESDEEIRRVPEFGGEAVGKETSGRESGSATGQERTQATVGESQRKRGRTPAEKENKRLKRLLRNRVSAQQARERKKAYLSELENRVKDLENKNSELEERLSTLQNENQMLRHILKNTTGNKRGGGGGSNADASL
B13: SREBF1 227-487 (Homo sapiens, UniProt P36956); sequence looked up; chain TTVTSQIQQVPVLLQPHFIKADSLLLTAMKTDGATVKAAGLSPLVSGTTVQTGPLPTLVSGGTILATVPLVVDAEKLPINRLAAGSKAPASAQSRGEKRTAHNAIEKRYRSSINDKIIELKDLVVGTEAKLNKSAVLRKAIDYIRFLQHSNQKLKQENLSLRTAVHKSKSLKDLVSACGSGGNTDVLMEGVKTEVEDTLTPPPSDAGSPFQSSPLSLGSRGSGSGGSGSDSEPDSPVFEDSKAKPEQRPSLHSRGMLDRSR
B14: POL30 1-258 K127G (Saccharomyces cerevisiae, UniProt P15873); chain MLEAKFEEASLFKRIIDGFKDCVQLVNFQCKEDGIIAQAVDDSRVLLVSLEIGVEAFQEYRCDHPVTLGMDLTSLSKILRCGNNTDTLTLIADNTPDSIILLFEDTKKDRIAEYSLKLMDIDADFLGIEELQYDSTLSLPSSEFSKIVRDLSQLSDSINIMITKETIKFVADGDIGSGSVIIKPFVDMEHPETSIKLEMDQPVDLTFGAKYLLDIIKGSSLSDRVGIRLSSEAPALFQFDLKSGFLQFFLAPKFNDEE
B15: SNU71 382-537 (Saccharomyces cerevisiae, UniProt P53207); chain SNTEPKIKSIRADIMSAENYEEHLEKNRSLYLKELLHLANDVHYDHHRSFKEQEERRDEEDRAKNGNAKELAPIQLSDGKAISAGKAAAITLPEGTVKSENYNADKNVSESSEHVKIKFDFKKAIDHSVESSSEDEGYRESELPPTKPSERSAAED
B16: lpxC 1-305 (Escherichia coli, UniProt P0A725); chain MIKQRTLKRIVQATGVGLHTGKKVTLTLRPAPANTGVIYRRTDLNPPVDFPADAKSVRDTMLCTCLVNEHDVRISTVEHLNAALAGLGIDNIVIEVNAPEIPIMDGSAAPFVYLLLDAGIDELNCAKKFVRIKETVRVEDGDKWAEFKPYNGFSLDFTIDFNHPAIDSSNQRYAMNFSADAFMRQISRARTFGFMRDIEYLQSRGLCLGGSFDCAIVVDDYRVLNEDGLRFEDEFVRHKMLDAIGDLFMCGHNIIGAFTAYKSGHALNNKLLQAVLAKQEAWEYVTFQDDAELPLAFKAPSAVLA
B17: MED2/PGD1 four-helix bundle 1-431 (Saccharomyces cerevisiae); chain 1 MVVQNSPVSSVHTANFSERGSNTRTMTYKNKLTVCFDDILKVGAEMMMQQQLKNVQLDSYLVNGFSQSQQKLLKEKVKLFHGILDDLETSLSQSSSYLETLTALGKEKEKEREEAEKKRAEQENMRKVREQEELKKRQELEEASQQQQLQQNSKEKNGLGLNFSTTAPANTTDANGSKENYQELGSLQSSSQTQLENANAANNGAAFSPLTTTRIQSQQAQPSDVMFNDLNSMDISMFSGLDSTGFDSTAFNATVDETKGFDDNDSGNNYNDINISSIENNINNNINSTKNGKDNNNESNKNNNGDEKNKNNNEDNENNNNSSEKNNNNNNNNNNNNDDNGNNNNNNSGNDNNNTTNNDSNNKNNSITTGNDNENIVNNDLPTTVVSNPGDNPPPADNGEEYLTLNDFNDLNIDWSTTGDNGELDLSGFNI; chain 2 MDSIIPAGVKLDDLQVILAKNENETRDKVCKQINEARDEILPLRLQFNEFIQIMANIDQEGSKQADRMAKYLHIRDKILQLNDRFQTLSSHLEALQPLFSTVPEYLKTADNRDRSFQLLEPLSTYNKNGNAVCSTATVVSTNHSAAASTPTTTATPHANPITHAHSLSNPNSTATMQHNPLAGKRGPKSGSTMGTPTVHNSTAAAPIAAPKKPRKPRQTKKAKAQAQAQAQAQAQVYAQQSTVQTPITASMAAALPNPTPSMINSVSPTNVMGTPLTNMMSPMGNAYSMGAQNQGGQVSMSQFNGSGNGSNPNTNTNSNNTPLQSQLNLNNLTPANILNMSMNNDFQQQQQQQQQQQQPQPQYNMNMGMNNMNNGGKELDSLDLNNLELGGLNMDFL
UniProt P47110, sequence (whole entry, looked up): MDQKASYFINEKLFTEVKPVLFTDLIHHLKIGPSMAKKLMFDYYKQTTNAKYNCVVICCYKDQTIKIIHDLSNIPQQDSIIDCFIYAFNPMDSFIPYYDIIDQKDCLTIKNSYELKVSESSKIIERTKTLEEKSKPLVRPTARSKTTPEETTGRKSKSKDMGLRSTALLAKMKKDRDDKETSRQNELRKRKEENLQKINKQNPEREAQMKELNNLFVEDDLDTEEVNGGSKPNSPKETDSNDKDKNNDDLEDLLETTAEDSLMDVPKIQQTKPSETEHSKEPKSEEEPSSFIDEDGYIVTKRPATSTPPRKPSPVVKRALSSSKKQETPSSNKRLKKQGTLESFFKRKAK
UniProt Q05471, sequence (whole entry, looked up): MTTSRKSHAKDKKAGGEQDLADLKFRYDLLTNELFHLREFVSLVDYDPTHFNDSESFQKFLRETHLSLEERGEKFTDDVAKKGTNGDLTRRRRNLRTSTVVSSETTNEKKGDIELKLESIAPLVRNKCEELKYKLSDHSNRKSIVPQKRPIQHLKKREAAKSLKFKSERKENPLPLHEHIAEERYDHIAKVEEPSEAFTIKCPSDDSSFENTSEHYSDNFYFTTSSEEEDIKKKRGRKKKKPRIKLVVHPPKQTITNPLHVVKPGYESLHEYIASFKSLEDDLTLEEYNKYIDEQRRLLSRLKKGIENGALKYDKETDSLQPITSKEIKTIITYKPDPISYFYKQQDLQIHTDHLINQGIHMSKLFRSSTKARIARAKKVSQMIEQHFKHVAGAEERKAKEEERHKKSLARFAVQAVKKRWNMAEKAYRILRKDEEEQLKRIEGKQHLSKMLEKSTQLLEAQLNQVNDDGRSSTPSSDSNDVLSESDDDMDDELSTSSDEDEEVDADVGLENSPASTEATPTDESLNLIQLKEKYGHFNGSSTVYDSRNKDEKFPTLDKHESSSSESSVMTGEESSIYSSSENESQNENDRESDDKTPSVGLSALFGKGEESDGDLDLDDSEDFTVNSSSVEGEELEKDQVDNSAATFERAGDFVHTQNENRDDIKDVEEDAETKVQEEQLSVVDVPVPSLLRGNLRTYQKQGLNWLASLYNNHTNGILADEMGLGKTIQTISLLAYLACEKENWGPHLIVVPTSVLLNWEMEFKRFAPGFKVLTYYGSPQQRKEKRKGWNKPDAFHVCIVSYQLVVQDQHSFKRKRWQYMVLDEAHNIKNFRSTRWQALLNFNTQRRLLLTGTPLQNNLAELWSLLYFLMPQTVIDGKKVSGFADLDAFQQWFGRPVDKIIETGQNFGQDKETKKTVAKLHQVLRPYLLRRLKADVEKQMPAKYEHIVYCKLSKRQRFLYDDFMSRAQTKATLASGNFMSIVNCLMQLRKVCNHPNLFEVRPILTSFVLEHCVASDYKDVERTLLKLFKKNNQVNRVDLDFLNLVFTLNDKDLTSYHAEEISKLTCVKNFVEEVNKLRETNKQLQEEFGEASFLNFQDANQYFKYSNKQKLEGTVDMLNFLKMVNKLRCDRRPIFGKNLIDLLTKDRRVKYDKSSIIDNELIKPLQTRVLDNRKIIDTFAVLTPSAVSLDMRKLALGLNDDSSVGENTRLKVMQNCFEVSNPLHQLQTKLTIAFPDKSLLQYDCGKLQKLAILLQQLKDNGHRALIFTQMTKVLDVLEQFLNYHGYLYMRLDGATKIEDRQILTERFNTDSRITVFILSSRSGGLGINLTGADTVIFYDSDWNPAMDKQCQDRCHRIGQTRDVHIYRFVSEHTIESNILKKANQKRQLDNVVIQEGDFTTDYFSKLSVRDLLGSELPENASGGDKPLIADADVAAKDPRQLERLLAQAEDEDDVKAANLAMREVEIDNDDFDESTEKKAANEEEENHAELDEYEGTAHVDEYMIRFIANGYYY
UniProt O95456, sequence (whole entry, looked up): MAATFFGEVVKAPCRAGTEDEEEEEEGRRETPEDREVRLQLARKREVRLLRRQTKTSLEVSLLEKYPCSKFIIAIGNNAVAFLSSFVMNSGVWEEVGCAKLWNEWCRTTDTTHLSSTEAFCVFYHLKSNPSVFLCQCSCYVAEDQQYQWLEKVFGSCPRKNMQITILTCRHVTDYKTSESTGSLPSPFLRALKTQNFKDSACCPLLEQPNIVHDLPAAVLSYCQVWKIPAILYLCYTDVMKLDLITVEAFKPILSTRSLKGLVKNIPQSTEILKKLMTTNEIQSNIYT
UniProt P47047, sequence (whole entry, looked up): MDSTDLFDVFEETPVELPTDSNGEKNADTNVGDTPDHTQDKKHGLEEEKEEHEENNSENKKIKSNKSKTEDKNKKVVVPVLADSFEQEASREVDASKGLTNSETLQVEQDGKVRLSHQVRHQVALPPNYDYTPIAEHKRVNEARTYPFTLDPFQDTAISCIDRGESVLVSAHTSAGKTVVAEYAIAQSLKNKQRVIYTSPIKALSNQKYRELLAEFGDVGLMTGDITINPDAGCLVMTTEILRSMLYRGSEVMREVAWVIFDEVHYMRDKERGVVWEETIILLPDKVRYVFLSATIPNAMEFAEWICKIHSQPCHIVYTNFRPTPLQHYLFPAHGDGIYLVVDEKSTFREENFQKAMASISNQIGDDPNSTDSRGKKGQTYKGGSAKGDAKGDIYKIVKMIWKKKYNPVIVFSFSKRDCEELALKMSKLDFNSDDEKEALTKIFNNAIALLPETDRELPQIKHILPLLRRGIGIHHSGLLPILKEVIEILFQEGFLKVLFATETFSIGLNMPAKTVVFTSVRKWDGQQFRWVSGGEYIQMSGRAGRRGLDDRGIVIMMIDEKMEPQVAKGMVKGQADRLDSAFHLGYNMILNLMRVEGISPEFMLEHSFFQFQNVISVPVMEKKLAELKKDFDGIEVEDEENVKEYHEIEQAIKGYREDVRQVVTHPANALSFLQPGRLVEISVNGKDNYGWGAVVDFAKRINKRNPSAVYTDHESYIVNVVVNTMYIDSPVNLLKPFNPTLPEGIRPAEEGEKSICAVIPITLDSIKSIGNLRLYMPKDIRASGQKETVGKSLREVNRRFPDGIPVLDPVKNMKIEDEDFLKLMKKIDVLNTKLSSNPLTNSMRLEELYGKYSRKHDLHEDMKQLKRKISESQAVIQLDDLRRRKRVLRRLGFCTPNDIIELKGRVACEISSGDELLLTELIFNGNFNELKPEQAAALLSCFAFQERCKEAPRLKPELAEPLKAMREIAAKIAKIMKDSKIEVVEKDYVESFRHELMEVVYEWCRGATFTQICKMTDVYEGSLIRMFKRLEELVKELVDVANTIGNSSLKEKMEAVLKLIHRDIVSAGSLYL
UniProt P13382, sequence (whole entry, looked up): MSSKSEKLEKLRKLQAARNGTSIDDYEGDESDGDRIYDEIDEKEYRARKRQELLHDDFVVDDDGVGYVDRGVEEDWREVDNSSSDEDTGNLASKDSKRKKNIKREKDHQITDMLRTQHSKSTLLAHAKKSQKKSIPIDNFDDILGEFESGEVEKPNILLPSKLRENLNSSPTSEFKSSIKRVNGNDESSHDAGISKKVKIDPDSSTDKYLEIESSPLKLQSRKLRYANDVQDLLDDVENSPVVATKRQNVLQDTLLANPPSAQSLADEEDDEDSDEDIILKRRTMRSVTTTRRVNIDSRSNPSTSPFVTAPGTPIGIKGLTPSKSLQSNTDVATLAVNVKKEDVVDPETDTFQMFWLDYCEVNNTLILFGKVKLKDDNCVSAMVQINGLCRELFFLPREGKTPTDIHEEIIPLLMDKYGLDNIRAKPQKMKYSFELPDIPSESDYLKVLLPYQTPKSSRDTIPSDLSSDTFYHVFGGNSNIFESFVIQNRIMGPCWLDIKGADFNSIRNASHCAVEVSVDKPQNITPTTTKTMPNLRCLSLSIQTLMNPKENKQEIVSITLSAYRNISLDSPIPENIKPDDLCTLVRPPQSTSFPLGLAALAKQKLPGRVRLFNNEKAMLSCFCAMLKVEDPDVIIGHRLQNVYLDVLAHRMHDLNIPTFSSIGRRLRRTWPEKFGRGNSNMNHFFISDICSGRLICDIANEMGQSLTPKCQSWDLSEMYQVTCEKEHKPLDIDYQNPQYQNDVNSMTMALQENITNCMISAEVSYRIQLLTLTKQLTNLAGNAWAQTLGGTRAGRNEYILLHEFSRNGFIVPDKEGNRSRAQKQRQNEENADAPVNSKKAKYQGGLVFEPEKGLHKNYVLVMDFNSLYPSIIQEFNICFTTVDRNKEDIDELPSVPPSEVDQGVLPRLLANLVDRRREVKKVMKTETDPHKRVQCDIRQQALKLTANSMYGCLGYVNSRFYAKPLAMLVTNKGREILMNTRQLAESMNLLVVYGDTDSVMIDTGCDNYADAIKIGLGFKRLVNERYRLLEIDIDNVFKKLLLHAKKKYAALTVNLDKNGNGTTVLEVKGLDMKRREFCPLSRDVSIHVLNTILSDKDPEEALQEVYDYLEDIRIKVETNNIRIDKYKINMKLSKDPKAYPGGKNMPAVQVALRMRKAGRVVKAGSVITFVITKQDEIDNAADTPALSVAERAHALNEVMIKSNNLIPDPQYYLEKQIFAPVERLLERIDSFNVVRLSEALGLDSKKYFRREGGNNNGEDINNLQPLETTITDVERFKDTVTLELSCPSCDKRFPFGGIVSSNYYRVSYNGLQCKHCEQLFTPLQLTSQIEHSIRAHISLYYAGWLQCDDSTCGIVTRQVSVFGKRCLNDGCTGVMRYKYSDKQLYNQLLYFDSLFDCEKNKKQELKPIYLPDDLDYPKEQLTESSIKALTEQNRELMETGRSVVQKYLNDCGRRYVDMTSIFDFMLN
UniProt O74988, sequence (whole entry, looked up): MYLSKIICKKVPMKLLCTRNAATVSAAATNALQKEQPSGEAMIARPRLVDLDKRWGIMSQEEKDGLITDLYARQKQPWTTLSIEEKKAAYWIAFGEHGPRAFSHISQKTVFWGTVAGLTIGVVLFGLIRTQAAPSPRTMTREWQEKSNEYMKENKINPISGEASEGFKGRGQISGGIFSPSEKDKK

B1 (POMP) — binding (PSMG1 (Homo sapiens, UniProt O95456); cryo-EM): binds
B2 (AIR2 1-223) — binding (MTR4 (Saccharomyces cerevisiae, UniProt P47047); HDX-MS): binds
DVLLLDVTPLS (HSPA9 interdomain linker, 434-444 (Homo sapiens)) — binding (HSPA9 NBD 52-431 R126W (Homo sapiens, UniProt P38646); BLI; peptide; together with: ADP): binds
PRI2 (Saccharomyces cerevisiae, UniProt P20457) — binding (POL1 (Saccharomyces cerevisiae, UniProt P13382); cryo-EM): binds
CKVTRRPKASDYQRL (TGOLN1 YxxΦ peptide) — binding (AP2A2/AP2B1/AP2M1/AP2S1 core, lacking appendage domains (Mus musculus); cryo-EM; peptide): binds
B3 (GPIHBP1 21-151) — binding (LPL mature (Bos taurus, UniProt P11151); HDX-MS): binds
B4 (PTK2 1-101) — binding (PRKCQ (Homo sapiens, UniProt Q04759); pull-down): binds
B5 (PUM1 589-1186) — binding (CNOT1/CNOT2/CNOT3 NOT module 1833-2361; pull-down): binds
POL32 (Saccharomyces cerevisiae, UniProt P47110) — binding (POL3 (Saccharomyces cerevisiae, UniProt P15436); mass photometry): binds
B6 (qcr10) — binding (COX5 mature (Schizosaccharomyces pombe, UniProt O74988); cryo-EM): binds
B7 (VPS72) — binding (SWR1 (Saccharomyces cerevisiae, UniProt Q05471); cryo-EM): binds
B8 (rasC Q62L) — binding (racE T25N/S192D (Dictyostelium discoideum); pull-down): binds
B9 (EFR3A 721-791 I763A) — binding (TTC7B/FAM126A FAM126A 1-308 (Homo sapiens); BLI): binds
B10 (CCDC32 66-130 Y77I) — binding (AP-2 α/σ2 (Mus musculus); pull-down): binds
B11 (NUP62) — binding (FUS (Homo sapiens, UniProt P35637); pull-down): binds
B12 (HY5) — binding (UBP14 (Arabidopsis thaliana, UniProt Q8L6Y1); pull-down): binds
B13 (SREBF1 227-487) — binding (LMNA 389-664 R482W (UniProt P02545); pull-down): binds
B14 (POL30 1-258 K127G) — binding (ECO1 (Saccharomyces cerevisiae, UniProt P43605); pull-down): binds
B15 (SNU71 382-537) — binding (PRP40 351-552 (Saccharomyces cerevisiae, UniProt P33203); pull-down): binds
B16 (lpxC 1-305) — binding (lapB 21-389 A376P (Escherichia coli, UniProt P0AB58); pull-down): binds
SMNTTLGSIGSRKYSFNYSSLPSPYKTTVYRYSAAKKIPD (NUP60 200-239 (Saccharomyces cerevisiae, UniProt P39705); sequence looked up) — binding (NUP85/SEH1 Nup85 1-564 (Saccharomyces cerevisiae); pull-down): binds
B17 — binding (RGR1 1-1082 (Saccharomyces cerevisiae, UniProt P19263); cryo-EM): binds

Excerpt of the above:
CKVTRRPKASDYQRL (TGOLN1 YxxΦ peptide) — binding (AP2A2/AP2B1/AP2M1/AP2S1 core, lacking appendage domains (Mus musculus); cryo-EM; peptide): binds
DVLLLDVTPLS (HSPA9 interdomain linker, 434-444 (Homo sapiens)) — binding (HSPA9 NBD 52-431 R126W (Homo sapiens, UniProt P38646); BLI; peptide; together with: ADP): binds
B10 (CCDC32 66-130 Y77I) — binding (AP-2 α/σ2 (Mus musculus); pull-down): binds
